Results gathered from unrelated publications.
Parts stem from different laboratories: compare values within a part only.

Study 1
Target: Histone acetyltransferase KAT6A, both winged helices, GST fusion (KAT6A, Homo sapiens, UniProt Q92794, residues 1-181)
Technique: protein binding microarray
Molecule type: double-stranded DNA, one strand shown
Matrix: in vitro
Concentration: not given
Setting: 8-mer, flanks averaged, mean of 2 arrays, mostly near background
Baseline: not given
Direction: higher = stronger binding
Residues (chain): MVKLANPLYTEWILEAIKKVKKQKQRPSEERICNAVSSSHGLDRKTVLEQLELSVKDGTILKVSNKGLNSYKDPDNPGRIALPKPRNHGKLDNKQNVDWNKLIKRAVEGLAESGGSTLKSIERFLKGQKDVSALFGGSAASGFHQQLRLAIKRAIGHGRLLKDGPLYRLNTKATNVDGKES
Sequence	E-score
ACGCTATG	0.105
AGGGTATG	-0.201
GGGAAGAA	-0.0705
CAAGATCA	-0.114
TCCAGCAA	-0.271
CCCGACTA	0.0758
ACTGACCG	0.22
TAAATAGA	0.0714
GTACAGCA	0.00133
CGACGGAA	0.311
CTCTCTAC	-0.152
ACGGTCAT	0.215
ACGGTTAC	0.204
ACGCTTCG	0.16
AAAGACGC	0.157
ACCGTCCA	0.127
AAACGACG	0.149
CTTACTGA	-0.069
AACCAGAG	-0.137

Study 2
Target: Centromere-binding protein 1, full length, His-tagged (CBF1, Saccharomyces cerevisiae, UniProt P17106, residues 1-351)
UniProt P17106, sequence (whole entry, looked up): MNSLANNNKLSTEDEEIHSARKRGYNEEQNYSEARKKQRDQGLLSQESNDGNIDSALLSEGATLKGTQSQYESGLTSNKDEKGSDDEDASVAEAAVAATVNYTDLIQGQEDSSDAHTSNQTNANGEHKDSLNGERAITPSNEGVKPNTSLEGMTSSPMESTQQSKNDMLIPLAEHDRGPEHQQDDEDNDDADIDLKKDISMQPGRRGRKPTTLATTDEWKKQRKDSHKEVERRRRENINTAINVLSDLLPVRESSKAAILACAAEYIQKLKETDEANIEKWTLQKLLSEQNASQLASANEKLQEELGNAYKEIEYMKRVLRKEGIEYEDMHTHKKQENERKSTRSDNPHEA
Technique: competition protein-binding microarray
Molecule type: double-stranded DNA, one strand shown
Matrix: in vitro
Concentration: 2 µM
Setting: whole 60-bp probe, lowest competitor level
With: Pho4 competitor, 0.05 µM
Direction: higher = stronger binding
Shared flanks, not repeated: … GTCTTGATTCGCTTGACGCTGCTG
Sequence	fluorescence intensity
ACCTGAAATGATTGACCTGTACAGAGGGTTACCTAT	65 a.u.
CCATTACCCGCAAAGCACGTGAGGAAAAAATCAATT	2470 a.u.
CTTCTGTAAATTTGTCCAGTGGGTGGACGCGCCCCG	79 a.u.
AAAGCGGTAATTTTTCACGTGAACTCACATATCTAT	1060 a.u.
CCTGGCCAAGGGCTTCACGTGTAATCTCATTTAATT	752 a.u.
AAAAATATGCATTTTCTCATGACAAATTCATTCGGA	103 a.u.
CTTTCCCGATCTTTTCACGTGGGCTTAGCACATTTG	793 a.u.
CGCCGGCTGGCGCTTCCCGTGGAAGGGTGTTTGACT	50.9 a.u.
CTTCTGTAAATTTGCACGGTGGGTGGACGCGCCCCG	77.4 a.u.
CGGCCGCTGGCAGAGCACATGCGCCGTACGTCCATA	80.9 a.u.

Study 3
Target: RING finger protein unkempt homolog, zinc fingers 1-6, GST-SBP tag (UNK, Homo sapiens, UniProt Q9C0B0, residues 30-357)
Technique: RNA Bind-n-Seq
Molecule type: RNA
Matrix: in vitro
Concentration: not given
Setting: RNA with constant flanks, human and mouse sites, ends assumed
Baseline: input RNA pool
Direction: higher = stronger binding
Shared flanks, not repeated: GGGAGUUCUACAGUCCGACGAUC … CAACAGAGGAUUGAGCAUCA
Residues (chain): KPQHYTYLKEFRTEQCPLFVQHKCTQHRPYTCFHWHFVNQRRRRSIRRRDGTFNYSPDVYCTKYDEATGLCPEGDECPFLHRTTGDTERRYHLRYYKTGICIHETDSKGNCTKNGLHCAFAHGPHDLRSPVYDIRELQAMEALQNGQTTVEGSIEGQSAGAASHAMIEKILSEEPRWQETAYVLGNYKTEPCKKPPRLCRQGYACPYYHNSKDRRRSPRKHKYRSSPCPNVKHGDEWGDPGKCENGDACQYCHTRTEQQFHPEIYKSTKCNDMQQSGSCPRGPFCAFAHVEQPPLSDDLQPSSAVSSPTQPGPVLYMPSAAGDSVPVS
Sequence	bound/input enrichment [ratio]
GGCCCUGUGAAAGCUGAGACUGAGGAAGCAGCCCAUUCAGUUUCACAAGAGAUGAGUGUGAAUUCUCCCACAGCCCAGGAGAGCCAGAGGAAUGCAGAAACCCCAGCGGAGACUCCUACU	0.116
AACUACCAGGUGACAAACAGCAUGUUUGGUGCUUCAAGAAAGAAGUUUGUAGAGGGGGUGGACAGCGACUACCAUGAUGAGAACAUGUACUACAGCCAGUCUUCUAUGUUCCCACAUCGG	0.0876
GCGCCAUUCAAGUUUGACAUGGAGUUGGACGACUUACCUAAGGAGAAGCUCAAAGAACUCAUUUUUGAAGAGACUGCUAGAUUCCAGCCAGGAUACAGAUCUUAAAUUGGUCAGGACAAG	0.141
GUUAUUUAUGGAUUAGAAAAAGCAUGUUUCUAUUUAAGUAAGCUGUAAAAAGUAUUAUUGAAUAUUUACUGUAAAUAUAUGUUCACAUAAAAAAAUAACUUGGAGGGUCUUUGUGUCCCU	0.257
CCAAAAGGCCAAGCAGCUAUAGAGUUGGACAUUCUGCUAGGAAGUGGAAGGCACAUGAUCAGUCUAUGAGUCAAUAUAAUGCAACAGGGUGUUUUGAGACCUUUGUUUUCACCUCUUGGC	0.229
CCUGUGUGUCACUUCCCUCACCUCACAGGCUGUGACCCUACCCUGGGUCCCUUGUACAUAACUCCUUGUGACAAAACCCUCUGGAAGUUCUGGACCCCAUUUUUGAUAGGCUUUUUUGUC	0.895
GACUUGUGCUGCCUGUGUGGAUCUAUGUCUUGGAGAGAAGCUGUGUGCAUCAGCUGCAAAUAACAUUUUAAAAAUCAACAUGUACUGUGCUUAUCCUGUCCCUGGAAUGGGCAACAAUUC	0.185
GGAAAUGUUCAGCCAUACUGUGGCCACGACUGGACCCUUUGUUUUACAGGAGAUUCUAAACUUGCCUCAAGUAUGCGCUAUGUGGAAACACAAUCAAUGCAGAUAGGAGCAUCCUAUAUG	0.123
GACAUUCUUCUCCUUGUUGUCCGAUUGGCUGUGCUGGUGGCUGUCACCCUCACGGUCCCAGUAGUUAUUUUCCCUAUCCGGAGUUCCGUCACUCACUUACUGUGUCCCACAAAAGAGUUC	0.492
UGUGUGUGUGCCAUCGUGCCUGGCUUAAAAUUGCUUAUUUUGAAUUCUUUUUAAAAAAAAAAAUCACAUUACAUUUUUCAGUCUUCUACUGCUUUAAAUUCCUGUUACCCUGAGAAGGUU	0.3
AAGAAAACAUACCAAUAUUGUUGCACAGACUAUUCCUCAGAUGUUAGCAAUGAUGGUUGAUUUGGAAGAAGAUGAGGACUGGGCAAAUGCAGAUGAACUAGAAGAUGAUGAUUUUGACAG	0.478

Study 4
Target: Prothrombin, mature alpha-thrombin (F2, Homo sapiens, UniProt P00734)
Technique: aptamer microarray, sandwich
Molecule type: DNA with 2'F-ANA
Matrix: in vitro
Concentration: 200 nM
Setting: whole 15-mer aptamer, many near background
With: Cy3 exosite-II aptamer, 400 nM
Direction: higher = stronger binding
Sequence: GGTTGGTGTGGTTGG
Modification	mean fluorescence intensity
2'F-ANA at 1 3 5 6 7 8 10 14 15	81.2 a.u.
2'F-ANA at 2 4 6 9 11 14	77.3 a.u.
2'F-ANA at 2 5 6 8 9 10 11 14	56.1 a.u.
2'F-ANA at 1 2 3 4 5 9 11 14 15	44.4 a.u.
2'F-ANA at 3 6 8 9 12 14	602 a.u.
2'F-ANA at 1 4 6 8 9 10 13 14	54.1 a.u.
2'F-ANA at 5 6 7 9 10 12 14 15	44.6 a.u.
2'F-ANA at 3 5 6 7 8 10 11 12 13 14	56.1 a.u.
2'F-ANA at 1 2 4 5 15	56.8 a.u.
2'F-ANA at 4 6 8 9 13 15	167 a.u.
2'F-ANA at 1 2 4 5 9 12 13	68.9 a.u.
2'F-ANA at 1 5 6 9 12 13	75.5 a.u.
2'F-ANA at 1 4 6 7 8 14 15	56.5 a.u.
2'F-ANA at 1 2 5 6 7 11 12	85.5 a.u.
2'F-ANA at 2 3 4 5 9 10 11 13 14 15	53.6 a.u.
2'F-ANA at 6 7 8 9 10 12 14	121 a.u.

Study 5
Target: Interferon regulatory factor 5, full length, phosphomimetic (IRF5, Homo sapiens, UniProt Q13568-2, residues 1-514, K96S/S451D/S453D/S456D/S462D)
Technique: protein-binding microarray
Molecule type: double-stranded DNA, one strand shown
Matrix: in vitro
Concentration: 250 nM
Setting: 60-bp whole probe
With: salmon DNA 0.4 mg/ml
Baseline: random background probes
Direction: higher = stronger binding
Shared flanks, not repeated: GCCTAGCAC … GTCTTGATTCGCTTGACGCTGCTG
Sequence	log fluorescence
TCAGAAATTCCTCTGAGACTGTGCTAG	-0.0541 z-score
AAATCTAAAAAGTCTCTGGGAGTGCTA	0.0462 z-score
GACGATATCGGGTTTCGGGACGTGCTA	3.95 z-score
GACGGGCTGGGTTTCGGGACGTGCTAG	2 z-score
ATCTGCAGCTGACTACACACGTGCTAG	-0.406 z-score
TCATTTTTCTAGTCCAGACTGTGCTAG	0.939 z-score
GACGGTTTGGGTTCCGGGACGTGCTAG	-0.0427 z-score
GACCAACTGGGGTTTCGAGACGTGCTA	1.04 z-score
TCAGTTTTCATTATTGTACTGTGCTAG	2.82 z-score
TCACCTCTAGGAATGTAACTGTGCTAG	-0.0375 z-score
TTAGGTATCGGGTATCGGATAGTGCTA	4.94 z-score
GACGAATTCAGTTTCGAGACGTGCTAG	6.46 z-score
GAAGAACTGAGTATCGAGACGTGCTAG	2.03 z-score
TTAGATCTGAGTCTCGATTAGTGCTAG	0.692 z-score
GACGATTCCAGTTTAGAGACGTGCTAG	0.0525 z-score
TCACCATTTTTTTTCACACTGTGCTAG	1.28 z-score
GACCGTATCGGTCTCGGGACGTGCTAG	5.19 z-score
TTAGGTATCCTACCGCTTTAGTGCTAG	-0.154 z-score

Excerpt of the above (study 1):
Sequence	E-score
TAAATAGA	0.0714
GTACAGCA	0.00133
CGACGGAA	0.311
CTCTCTAC	-0.152
ACGGTCAT	0.215
ACGGTTAC	0.204
ACGCTTCG	0.16
